Experimental data gathered from unrelated publications.
Every numbered part comes from another study and shows a few of its results, in no order. Substitutions count along the parent as printed.
Sequence of UniProt O75417 (whole entry, unmodified, looked up): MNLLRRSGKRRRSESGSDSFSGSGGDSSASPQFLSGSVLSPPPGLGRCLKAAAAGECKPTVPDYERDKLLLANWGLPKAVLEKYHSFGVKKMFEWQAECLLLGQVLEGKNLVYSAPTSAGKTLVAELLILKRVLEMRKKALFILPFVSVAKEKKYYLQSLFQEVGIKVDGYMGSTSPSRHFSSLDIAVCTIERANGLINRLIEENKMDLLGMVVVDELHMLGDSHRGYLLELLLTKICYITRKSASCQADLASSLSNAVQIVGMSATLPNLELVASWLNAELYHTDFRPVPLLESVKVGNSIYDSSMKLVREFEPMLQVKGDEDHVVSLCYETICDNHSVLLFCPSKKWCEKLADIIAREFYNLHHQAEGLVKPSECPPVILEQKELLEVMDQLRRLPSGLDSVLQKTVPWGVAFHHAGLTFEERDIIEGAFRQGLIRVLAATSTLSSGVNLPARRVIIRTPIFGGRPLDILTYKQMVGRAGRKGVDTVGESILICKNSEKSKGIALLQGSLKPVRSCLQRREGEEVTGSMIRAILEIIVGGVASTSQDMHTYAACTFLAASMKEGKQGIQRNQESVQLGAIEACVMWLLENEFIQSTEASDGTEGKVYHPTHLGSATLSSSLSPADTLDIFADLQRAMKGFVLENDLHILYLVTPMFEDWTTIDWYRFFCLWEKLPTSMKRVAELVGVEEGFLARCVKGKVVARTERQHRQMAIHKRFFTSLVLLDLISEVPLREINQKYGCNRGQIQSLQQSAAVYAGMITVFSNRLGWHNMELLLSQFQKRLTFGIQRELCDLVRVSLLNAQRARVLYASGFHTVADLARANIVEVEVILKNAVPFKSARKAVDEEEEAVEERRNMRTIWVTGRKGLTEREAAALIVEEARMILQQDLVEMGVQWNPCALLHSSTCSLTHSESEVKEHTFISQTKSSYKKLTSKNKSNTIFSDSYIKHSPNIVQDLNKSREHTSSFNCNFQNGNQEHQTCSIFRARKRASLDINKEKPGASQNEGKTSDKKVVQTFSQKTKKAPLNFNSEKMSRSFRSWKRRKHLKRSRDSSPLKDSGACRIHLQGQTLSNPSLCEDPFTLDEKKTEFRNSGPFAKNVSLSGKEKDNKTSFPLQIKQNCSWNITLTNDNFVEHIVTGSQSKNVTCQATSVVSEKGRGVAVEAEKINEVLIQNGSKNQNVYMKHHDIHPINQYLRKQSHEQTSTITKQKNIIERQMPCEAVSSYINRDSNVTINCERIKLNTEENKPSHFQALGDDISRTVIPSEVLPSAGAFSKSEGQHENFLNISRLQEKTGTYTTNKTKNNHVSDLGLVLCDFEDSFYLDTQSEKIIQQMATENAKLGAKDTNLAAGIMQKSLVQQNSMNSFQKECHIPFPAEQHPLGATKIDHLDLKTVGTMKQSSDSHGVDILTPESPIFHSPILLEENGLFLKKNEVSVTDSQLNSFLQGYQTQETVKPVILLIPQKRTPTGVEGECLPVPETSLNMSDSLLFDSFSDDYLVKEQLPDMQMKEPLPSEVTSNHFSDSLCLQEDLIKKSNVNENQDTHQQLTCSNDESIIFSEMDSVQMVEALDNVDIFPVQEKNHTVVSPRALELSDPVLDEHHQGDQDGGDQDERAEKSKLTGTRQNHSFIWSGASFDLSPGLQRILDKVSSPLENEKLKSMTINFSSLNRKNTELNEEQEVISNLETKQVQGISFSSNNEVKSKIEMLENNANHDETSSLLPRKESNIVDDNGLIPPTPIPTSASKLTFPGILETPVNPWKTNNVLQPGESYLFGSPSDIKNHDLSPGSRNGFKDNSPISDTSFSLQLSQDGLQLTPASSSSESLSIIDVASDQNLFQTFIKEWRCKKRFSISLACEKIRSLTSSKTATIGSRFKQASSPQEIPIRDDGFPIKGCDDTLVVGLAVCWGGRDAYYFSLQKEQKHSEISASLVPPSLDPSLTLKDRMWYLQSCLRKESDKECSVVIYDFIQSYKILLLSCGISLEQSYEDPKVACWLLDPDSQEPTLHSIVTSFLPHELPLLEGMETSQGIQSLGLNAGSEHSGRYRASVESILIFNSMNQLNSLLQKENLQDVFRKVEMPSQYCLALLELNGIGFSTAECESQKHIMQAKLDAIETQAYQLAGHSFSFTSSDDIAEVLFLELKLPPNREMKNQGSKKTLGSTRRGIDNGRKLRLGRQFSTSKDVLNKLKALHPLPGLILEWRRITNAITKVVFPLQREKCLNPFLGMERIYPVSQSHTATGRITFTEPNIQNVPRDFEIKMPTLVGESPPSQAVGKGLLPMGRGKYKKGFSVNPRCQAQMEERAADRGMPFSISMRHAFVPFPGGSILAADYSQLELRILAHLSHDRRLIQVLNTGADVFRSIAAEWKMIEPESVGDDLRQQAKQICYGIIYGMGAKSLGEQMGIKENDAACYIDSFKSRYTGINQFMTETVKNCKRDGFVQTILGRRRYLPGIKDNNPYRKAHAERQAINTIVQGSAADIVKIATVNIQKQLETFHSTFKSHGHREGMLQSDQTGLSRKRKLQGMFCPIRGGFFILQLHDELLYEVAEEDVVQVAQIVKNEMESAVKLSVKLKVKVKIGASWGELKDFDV

Series 1 — read-out: binding; technique: phage display NGS; molecule type: peptide; reference: input library
Target: UDP-N-acetylglucosamine--peptide N-acetylglucosaminyltransferase 110 kDa subunit (OGT, Homo sapiens, UniProt O15294)
Sequence of UniProt O15294 (whole entry, looked up): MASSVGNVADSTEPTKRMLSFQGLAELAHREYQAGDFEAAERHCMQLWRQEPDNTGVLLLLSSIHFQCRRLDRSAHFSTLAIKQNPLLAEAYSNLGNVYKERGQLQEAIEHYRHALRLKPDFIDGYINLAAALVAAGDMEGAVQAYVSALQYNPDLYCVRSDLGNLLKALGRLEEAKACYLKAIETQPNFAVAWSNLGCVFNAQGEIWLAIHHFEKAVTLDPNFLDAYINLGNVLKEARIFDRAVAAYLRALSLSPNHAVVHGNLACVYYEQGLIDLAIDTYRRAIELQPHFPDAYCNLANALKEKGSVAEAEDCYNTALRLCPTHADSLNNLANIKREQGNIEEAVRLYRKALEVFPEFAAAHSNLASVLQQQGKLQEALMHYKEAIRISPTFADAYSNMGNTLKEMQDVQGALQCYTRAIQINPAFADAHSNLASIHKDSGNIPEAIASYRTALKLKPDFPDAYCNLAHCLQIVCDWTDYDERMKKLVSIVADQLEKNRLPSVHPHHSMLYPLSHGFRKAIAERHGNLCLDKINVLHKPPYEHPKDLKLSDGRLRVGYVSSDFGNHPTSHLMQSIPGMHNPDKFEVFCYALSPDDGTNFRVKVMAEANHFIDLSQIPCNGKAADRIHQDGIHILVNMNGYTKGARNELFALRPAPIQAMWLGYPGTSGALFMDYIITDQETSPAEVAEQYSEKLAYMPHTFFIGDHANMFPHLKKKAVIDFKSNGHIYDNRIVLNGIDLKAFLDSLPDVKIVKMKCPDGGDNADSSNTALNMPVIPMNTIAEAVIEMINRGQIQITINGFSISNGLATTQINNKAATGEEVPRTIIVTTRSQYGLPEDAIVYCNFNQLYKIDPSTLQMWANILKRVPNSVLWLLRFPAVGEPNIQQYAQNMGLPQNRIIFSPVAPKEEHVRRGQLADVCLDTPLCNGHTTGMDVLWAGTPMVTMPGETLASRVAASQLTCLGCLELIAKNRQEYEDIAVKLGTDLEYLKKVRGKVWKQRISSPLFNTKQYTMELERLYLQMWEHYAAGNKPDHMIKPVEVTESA
Molecule | minimum log2 enrichment ratio
QPIHSHAIWPHGTHH | 3.2
HFYTPHFHYEHARFQ | 1.41
WGPQHMRHHYAHQHT | 2.52
WNAPRHHDTHWHVYT | 2.31
RADDYKPMYTIRFMR | 3.22
DMYEYRYKPHYVIQI | 2.71
HSKVHSHDVVTIYHH | 1.9
APDIFFHPKYYIKI | 3.8

Series 2 — read-out: enzyme activity; action: inhibitor; technique: radiometric; concentration: 0.5 µM
Target: Serine/threonine-protein kinase 33 (STK33, Homo sapiens, UniProt Q9BYT3)
Sequence of UniProt Q9BYT3 (whole entry, looked up): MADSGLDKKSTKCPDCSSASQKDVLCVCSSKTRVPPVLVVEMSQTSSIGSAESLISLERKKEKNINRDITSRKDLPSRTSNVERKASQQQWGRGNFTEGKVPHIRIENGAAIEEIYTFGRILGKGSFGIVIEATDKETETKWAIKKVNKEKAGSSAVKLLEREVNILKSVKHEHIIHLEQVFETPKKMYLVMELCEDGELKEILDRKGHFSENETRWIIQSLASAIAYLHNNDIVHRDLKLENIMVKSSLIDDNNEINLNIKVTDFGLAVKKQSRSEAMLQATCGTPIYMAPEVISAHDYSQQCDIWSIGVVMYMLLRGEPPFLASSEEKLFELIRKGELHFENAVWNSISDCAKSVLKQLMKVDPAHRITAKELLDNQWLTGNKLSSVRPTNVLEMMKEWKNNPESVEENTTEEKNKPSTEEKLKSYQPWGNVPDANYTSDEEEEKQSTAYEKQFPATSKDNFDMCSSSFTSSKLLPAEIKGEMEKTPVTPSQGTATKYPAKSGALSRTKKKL
SMILES | remaining activity [%]
c1ccc(-c2[nH]ncc2-c2ccnc3ccccc23)nc1 | 92.9
Ic1cccc(CSc2nnc(-c3ccncc3)o2)c1 | 111
O=C(NC(NC(=S)Nc1ccc(F)c([N+](=O)[O-])c1)C(Cl)(Cl)Cl)C(c1ccccc1)c1ccccc1 (stereo not shown) | 99.6
CCN(CC)C(=O)c1ccc(Nc2nc(OCC3CCCCC3)c3[nH]cnc3n2)cc1 | 67.2
O=C1c2ccccc2-[n+]2ccc3c([nH]c4ccccc43)c21 | 101
Nc1cccc(-c2cc3c(Oc4cccc(O)c4)ncnc3[nH]2)c1 | 80.3
O=c1[nH]c2ccccc2n1C1CCN(Cc2ccc(-c3[nH]c4cc5ncnc5cc4nc3-c3ccccc3)cc2)CC1 | 89.6
CN([C@@H](Cc1ccc(OS(=O)(=O)c2cccc3cnccc23)cc1)C(=O)N1CCN(c2ccccc2)CC1)S(=O)(=O)c1cccc2cnccc12 | 97.3
N#C/C(=C\c1ccc(O)c(O)c1)C(=O)NCc1ccccc1 | 94.9
O=C1Nc2ccc(Cl)cc2C1=Cc1cc(Cl)c(O)c(Cl)c1 | 85.1
CCN(CC)CCNC(=O)c1c(C)[nH]c(/C=C2\C(=O)Nc3ccc(F)cc32)c1C | 31.8
COc1cc2ncnc(Nc3cccc(Cl)c3)c2cc1OC | 88.3
COC[C@H]1OC(=O)c2coc3c2[C@@]1(C)C1=C(C3=O)[C@@H]2CCC(=O)[C@@]2(C)C[C@H]1OC(C)=O | 88.2
O=C1c2ccccc2-c2n[nH]c3cccc1c23 | 47.7

Series 3 — target: CCNF, cyclin fold, Cln2 fusion (human); technique: yeast growth competition, sequencing; medium: yeast; notes: strong parent motif; reference: not given; reading: higher = stronger binding
Parent: viral docking peptide; TSVRRALFTGGSD; partner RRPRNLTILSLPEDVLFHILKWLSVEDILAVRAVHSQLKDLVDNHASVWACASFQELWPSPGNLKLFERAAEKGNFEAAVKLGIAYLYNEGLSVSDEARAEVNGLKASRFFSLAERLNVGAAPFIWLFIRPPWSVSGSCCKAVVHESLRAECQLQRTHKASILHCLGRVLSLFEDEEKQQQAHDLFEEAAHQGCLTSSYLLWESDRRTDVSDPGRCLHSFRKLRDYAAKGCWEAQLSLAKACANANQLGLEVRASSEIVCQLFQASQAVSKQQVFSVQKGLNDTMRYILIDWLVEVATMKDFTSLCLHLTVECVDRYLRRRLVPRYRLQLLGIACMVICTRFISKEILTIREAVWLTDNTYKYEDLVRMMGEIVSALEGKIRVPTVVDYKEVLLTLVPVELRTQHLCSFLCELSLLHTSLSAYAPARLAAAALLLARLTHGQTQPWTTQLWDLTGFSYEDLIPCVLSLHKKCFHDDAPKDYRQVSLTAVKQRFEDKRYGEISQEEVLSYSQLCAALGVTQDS
Variant | normalised enrichment score
TSERRALFTGGSD [V3E] | 1.59
TSVRRALFRGGSD [T9R] | 8.66
TSVRRFLFTGGSD [A6F] | 2.93
TSDRRALFTGGSD [V3D] | -0.0158
TSVRRALFTWGSD [G10W] | 8.71
TSVRHALFTGGSD [R5H] | 1.35
TSVRMALFTGGSD [R5M] | 0.899
TSVREALFTGGSD [R5E] | 0.108

Other studies, line by line
Compound | target | read-out | action | concentration | measurement | value
CCN1CCN(C(=O)Cc2ccc(Nc3ncc(F)c(Nc4ccc(C(=O)Nc5ccccc5Cl)cc4)n3)cc2)CC1 | DNA polymerase theta, ATPase domain (POLQ, Homo sapiens, UniProt O75417) | enzyme activity | inhibitor | 77 µM | remaining activity | 93.4%
